Measured values gathered from unrelated publications.
A part holds a random share of what one study measured. Substitutions count along the parent as printed.

Series 1
Target: BATF3, bZIP domain (human)
Technique: DHFR protein complementation
Matrix: yeast
Notes: single substitutions, most at no-binding floor
Baseline: wild-type JUN-FOS pair
Reading: higher = stronger binding
Endpoint: binding fitness
Parent: JUN, bZIP domain (human); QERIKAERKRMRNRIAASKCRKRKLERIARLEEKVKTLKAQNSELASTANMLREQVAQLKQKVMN; partner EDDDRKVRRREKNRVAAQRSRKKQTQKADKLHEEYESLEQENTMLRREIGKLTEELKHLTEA
R53M: 0.0473 natural log
I28G: 0.373 natural log
S47K: 0.265 natural log
K34Q: 0.184 natural log
A46W: 0.17 natural log
T48I: 0.0674 natural log
L31R: 0.0927 natural log
K39Y: 0.0748 natural log
A29P: 0.174 natural log

Series 2
Target: CCNB2, cyclin fold, Cln2 fusion (human)
Technique: yeast growth competition, sequencing
Matrix: yeast
Notes: weak parent motif
Baseline: not given
Reading: higher = stronger binding
Endpoint: normalised enrichment score
Parent: E2F7 docking peptide (human); SSAQRRLEIPSGG; partner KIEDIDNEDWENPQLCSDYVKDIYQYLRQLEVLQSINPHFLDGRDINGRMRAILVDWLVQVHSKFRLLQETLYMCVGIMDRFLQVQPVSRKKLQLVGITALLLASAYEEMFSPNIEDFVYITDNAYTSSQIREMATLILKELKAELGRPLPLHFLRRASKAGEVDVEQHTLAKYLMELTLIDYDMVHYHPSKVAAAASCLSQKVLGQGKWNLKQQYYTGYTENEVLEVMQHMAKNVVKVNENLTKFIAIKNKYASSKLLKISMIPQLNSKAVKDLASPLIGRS
Q4A: 0.253
S1A: 0.401
S11A: -0.0664
S2A: -0.0292
P10A: -0.0499
R5K I9F: -0.229
G12A: 0.0652
I9F: 0.0434

Series 3
Target: ABI1, truncated, D143A, DHFR fusion (Arabidopsis thaliana)
Technique: DHFR PCA, deep sequencing
Matrix: yeast
Notes: methotrexate growth selection, single substitutions
With: (+)-ABA 0.0091 µM
Baseline: wild-type fitted maximum
Reading: higher = stronger binding
Endpoint: relative binding score
Parent: PYL1, truncated, DHFR fusion (Arabidopsis thaliana); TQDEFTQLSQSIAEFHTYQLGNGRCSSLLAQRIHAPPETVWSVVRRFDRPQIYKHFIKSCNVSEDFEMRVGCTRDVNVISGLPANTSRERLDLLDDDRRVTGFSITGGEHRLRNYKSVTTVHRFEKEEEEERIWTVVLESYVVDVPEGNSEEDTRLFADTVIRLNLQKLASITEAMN
I105M: 2.77%
S27G: 52.6%
R24D: -1.68%
R111L: -1.35%
I133Q: 61.9%
R111T: -0.953%
L82Q: 10.9%
R99W: 73.7%
G107I: -7.05%
A35I: 0.0258%
N61V: 53.1%
K54R: 20.9%
D97P: -1.15%
N149S: 58.2%
L8P: -6.68%

Further values, each from its own experiment
PhoQ, residues 284 288 289 292 302 303 SNGLAW — fold induction (PhoP, residues 12 14 15 18 19 GHCSL (Escherichia coli, UniProt P23836); Sort-seq, item: YFP reporter; E. coli; PhoQ-PhoP variant library, with: 10 µM Mg2+; baseline: high Mg2+ state, higher = stronger signaling): 9.56

Excerpt of the above (series 3):
R111L: -1.35%
I133Q: 61.9%
R111T: -0.953%
